Published values of several laboratories.
Each line is one published result; not all experiments were run side by side. ± gives the spread as reported.
Tmem97: Sigma intracellular receptor 2 (Tmem97, Rattus norvegicus, UniProt Q5U3Y7)
UniProt Q5U3Y7, sequence (whole entry, looked up): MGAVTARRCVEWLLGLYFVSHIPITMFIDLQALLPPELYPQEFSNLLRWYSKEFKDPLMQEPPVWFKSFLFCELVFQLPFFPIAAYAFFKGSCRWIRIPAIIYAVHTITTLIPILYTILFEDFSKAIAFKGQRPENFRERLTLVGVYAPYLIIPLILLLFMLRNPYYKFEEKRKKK
OXTR: Oxytocin receptor (OXTR, Homo sapiens, UniProt P30559)
UniProt P30559, sequence (whole entry, looked up): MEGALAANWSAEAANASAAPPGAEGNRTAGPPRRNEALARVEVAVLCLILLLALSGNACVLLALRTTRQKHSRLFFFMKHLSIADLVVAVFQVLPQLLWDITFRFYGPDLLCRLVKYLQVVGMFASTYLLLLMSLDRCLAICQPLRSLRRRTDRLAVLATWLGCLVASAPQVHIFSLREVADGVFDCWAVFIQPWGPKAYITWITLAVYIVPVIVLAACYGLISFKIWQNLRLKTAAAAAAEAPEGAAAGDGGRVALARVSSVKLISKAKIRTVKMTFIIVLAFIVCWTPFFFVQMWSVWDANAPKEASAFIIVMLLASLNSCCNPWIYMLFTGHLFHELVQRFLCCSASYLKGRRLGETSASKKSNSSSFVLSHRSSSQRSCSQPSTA
TPR: Trypanothione reductase (TPR, Trypanosoma brucei brucei, UniProt P39051)
Bifunctional dihydrofolate reductase-thymidylate synthase: Bifunctional dihydrofolate reductase-thymidylate synthase (Leishmania major, UniProt P07382)
Slc18a2: Synaptic vesicular amine transporter (Slc18a2, Rattus norvegicus, UniProt Q01827)
UniProt Q01827, sequence (whole entry, looked up): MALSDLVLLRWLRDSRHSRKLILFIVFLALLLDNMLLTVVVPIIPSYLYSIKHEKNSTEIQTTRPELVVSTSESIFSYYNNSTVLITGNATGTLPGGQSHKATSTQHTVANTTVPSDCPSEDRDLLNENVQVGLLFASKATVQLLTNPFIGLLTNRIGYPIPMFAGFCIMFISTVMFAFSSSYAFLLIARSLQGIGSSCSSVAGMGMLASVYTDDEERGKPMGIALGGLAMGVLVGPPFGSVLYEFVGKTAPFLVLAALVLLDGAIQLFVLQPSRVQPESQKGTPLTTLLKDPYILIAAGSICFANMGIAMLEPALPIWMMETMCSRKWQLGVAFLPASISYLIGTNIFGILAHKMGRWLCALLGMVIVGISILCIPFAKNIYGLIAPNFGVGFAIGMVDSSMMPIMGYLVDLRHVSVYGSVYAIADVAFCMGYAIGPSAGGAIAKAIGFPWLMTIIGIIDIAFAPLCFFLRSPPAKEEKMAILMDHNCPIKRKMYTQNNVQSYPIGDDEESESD
HTR2B: 5-hydroxytryptamine receptor 2B (HTR2B, Homo sapiens, UniProt P41595)
UniProt P41595, sequence (whole entry, looked up): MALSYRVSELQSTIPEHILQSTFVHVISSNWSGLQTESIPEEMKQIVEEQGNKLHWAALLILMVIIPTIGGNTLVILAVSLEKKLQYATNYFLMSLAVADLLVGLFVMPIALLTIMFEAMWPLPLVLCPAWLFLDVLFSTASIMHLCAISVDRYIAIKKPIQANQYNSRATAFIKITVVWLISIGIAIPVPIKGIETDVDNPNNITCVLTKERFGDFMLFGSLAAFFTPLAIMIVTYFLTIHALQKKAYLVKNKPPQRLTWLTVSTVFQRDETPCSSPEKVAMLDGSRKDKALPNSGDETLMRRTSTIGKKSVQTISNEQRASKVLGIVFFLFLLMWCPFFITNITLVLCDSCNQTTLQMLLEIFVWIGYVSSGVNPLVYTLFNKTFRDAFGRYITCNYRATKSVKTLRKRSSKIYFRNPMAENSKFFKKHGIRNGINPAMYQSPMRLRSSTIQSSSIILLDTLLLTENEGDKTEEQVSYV
UniProt P33535, sequence (whole entry, looked up): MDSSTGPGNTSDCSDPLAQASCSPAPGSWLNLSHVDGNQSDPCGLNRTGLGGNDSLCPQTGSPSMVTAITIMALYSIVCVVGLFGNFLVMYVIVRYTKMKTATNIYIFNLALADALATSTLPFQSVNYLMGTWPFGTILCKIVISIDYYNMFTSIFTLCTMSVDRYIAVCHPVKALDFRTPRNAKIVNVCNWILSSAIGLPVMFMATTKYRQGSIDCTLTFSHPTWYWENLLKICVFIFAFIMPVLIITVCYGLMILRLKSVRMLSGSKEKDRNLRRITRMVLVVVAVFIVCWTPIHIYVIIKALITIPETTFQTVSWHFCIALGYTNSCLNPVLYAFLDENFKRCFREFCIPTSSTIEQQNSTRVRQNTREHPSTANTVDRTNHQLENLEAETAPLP
UniProt P06733, sequence (whole entry, looked up): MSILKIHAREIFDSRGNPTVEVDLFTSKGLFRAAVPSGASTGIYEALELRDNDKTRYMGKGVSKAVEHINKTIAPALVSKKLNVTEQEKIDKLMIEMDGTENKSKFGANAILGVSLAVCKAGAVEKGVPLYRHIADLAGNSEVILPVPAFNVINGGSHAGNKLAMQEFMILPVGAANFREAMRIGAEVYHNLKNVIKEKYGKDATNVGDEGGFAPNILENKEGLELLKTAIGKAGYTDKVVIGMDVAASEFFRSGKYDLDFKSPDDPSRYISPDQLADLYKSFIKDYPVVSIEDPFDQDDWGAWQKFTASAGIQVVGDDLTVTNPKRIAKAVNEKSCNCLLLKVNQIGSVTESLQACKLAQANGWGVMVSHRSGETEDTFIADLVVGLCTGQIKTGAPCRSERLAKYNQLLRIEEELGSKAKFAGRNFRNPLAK
UniProt P25774, sequence (whole entry, looked up): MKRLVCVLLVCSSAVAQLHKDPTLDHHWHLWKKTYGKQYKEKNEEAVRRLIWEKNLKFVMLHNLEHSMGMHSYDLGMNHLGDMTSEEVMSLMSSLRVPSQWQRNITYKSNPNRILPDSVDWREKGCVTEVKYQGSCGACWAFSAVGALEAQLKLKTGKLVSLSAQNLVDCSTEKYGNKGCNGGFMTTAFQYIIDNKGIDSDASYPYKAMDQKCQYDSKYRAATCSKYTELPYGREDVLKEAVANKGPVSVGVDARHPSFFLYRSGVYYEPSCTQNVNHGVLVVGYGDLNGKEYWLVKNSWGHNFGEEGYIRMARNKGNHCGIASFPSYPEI
UniProt P41146, sequence (whole entry, looked up): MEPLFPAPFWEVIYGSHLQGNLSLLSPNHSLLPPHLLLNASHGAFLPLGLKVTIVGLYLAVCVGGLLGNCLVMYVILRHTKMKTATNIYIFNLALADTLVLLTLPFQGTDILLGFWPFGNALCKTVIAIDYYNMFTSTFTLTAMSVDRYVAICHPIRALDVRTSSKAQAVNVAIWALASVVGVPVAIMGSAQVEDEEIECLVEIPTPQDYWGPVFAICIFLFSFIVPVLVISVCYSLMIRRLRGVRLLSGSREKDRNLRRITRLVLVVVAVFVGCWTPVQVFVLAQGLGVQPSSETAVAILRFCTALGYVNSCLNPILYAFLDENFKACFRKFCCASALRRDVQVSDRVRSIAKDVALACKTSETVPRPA
UniProt P0A6M2, sequence (whole entry, unmodified, looked up): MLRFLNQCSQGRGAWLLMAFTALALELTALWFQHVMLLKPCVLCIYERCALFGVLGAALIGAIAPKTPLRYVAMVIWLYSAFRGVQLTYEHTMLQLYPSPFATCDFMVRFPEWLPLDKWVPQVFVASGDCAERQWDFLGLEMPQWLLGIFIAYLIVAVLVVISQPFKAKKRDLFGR
UniProt P54764, sequence (whole entry, looked up): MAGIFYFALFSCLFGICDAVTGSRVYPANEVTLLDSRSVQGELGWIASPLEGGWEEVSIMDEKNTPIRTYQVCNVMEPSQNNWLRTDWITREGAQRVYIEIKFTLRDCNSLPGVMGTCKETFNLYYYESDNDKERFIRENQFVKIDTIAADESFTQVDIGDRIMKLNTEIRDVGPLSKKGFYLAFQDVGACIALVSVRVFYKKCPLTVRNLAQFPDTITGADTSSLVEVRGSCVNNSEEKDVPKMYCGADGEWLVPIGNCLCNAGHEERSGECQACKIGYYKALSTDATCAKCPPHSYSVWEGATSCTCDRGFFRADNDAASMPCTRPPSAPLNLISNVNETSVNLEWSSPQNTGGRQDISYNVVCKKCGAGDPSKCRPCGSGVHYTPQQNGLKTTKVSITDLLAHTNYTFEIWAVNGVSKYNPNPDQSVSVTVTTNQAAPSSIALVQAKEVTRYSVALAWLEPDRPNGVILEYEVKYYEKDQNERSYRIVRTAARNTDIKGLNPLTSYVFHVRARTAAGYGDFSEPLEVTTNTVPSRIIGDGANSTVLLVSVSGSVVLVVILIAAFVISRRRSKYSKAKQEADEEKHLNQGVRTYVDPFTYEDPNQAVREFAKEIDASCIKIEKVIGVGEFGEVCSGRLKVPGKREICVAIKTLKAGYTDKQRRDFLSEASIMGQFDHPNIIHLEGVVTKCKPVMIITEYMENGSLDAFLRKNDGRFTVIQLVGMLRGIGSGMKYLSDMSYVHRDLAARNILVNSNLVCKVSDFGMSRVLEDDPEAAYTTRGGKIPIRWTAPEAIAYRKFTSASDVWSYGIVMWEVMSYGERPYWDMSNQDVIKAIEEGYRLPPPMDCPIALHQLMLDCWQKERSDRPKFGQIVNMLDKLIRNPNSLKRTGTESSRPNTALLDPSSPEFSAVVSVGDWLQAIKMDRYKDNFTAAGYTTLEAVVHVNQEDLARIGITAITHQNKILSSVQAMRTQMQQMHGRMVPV
UniProt P50391, sequence (whole entry, looked up): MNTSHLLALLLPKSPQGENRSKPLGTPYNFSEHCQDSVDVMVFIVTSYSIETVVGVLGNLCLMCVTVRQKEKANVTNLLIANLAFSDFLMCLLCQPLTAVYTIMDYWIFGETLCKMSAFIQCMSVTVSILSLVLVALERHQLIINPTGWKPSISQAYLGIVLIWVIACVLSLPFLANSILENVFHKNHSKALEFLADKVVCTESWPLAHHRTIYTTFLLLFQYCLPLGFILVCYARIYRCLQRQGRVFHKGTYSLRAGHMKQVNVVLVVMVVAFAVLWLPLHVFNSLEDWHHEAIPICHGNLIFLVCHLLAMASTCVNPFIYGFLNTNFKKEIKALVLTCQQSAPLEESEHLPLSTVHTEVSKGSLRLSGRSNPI

O=c1sc2ccccc2n1CCCN1CCCCCC1 — Ki (Tmem97; ligand displacement, radioligand): 177 nM
CN(C)c1ccc2c(c1)C(=O)N(C(CS)C(N)=O)C2=O (stereo not drawn) — Ki (Metallo-beta-lactamase type 2 (Serratia marcescens, UniProt P52699); enzyme activity, inhibitor; Km 4.8 µM, added: chromacef 25 µM): 80 ± 10 nM
CC[C@H](C)[C@H](NC(=O)[C@H](CCC(=O)O)NC(=O)[C@H](Cc1ccc(N)cc1)NC(=O)[C@@H](C)NC(=O)[C@@H](N)Cc1ccc(O)cc1)C(=O)N[C@H](C(=O)NCC(N)=O)[C@@H](C)CC — Ki (Oprm1 (Mus musculus, UniProt P42866); ligand displacement, radioligand; cell membranes): > 1000 nM
CC[C@H](C)[C@@H]1NC(=O)[C@H](Cc2ccc(O)cc2)NC(=O)[C@@H](N)CCc2cn(nn2)C[C@@H](C(=O)N2CCC[C@H]2C(=O)N[C@@H](CC(C)C)C(=O)NCC(N)=O)NC(=O)[C@H](CC(N)=O)NC(=O)[C@H](CCC(N)=O)NC1=O — Ki (OXTR; ligand displacement, radioligand; cell membranes): 12000 nM
O=C(N[C@@H](Cc1ccc(F)cc1)C(=O)CCl)OCc1ccccc1 — Ki (Prothrombin (F2, Homo sapiens, UniProt P00734)): 150000 nM
Cc1cc(O)c(I)c(C)c1C[C@H](N)C(=O)N[C@H](C)C(=O)N[C@@H](Cc1ccccc1)C(=O)N[C@@H](Cc1ccccc1)C(N)=O — Ki (Oprm1 (Mus musculus, UniProt P42866); ligand displacement, radioligand; cell membranes): 1 nM
COc1cc2c(cc1O)oc(=O)c1c3cc(O)c(O)cc3oc21 — Ki (Genome polyprotein, NS5B polymerase (Hepatitis C virus genotype 1b, UniProt P26663); RNA polymerase activity, competitive inhibitor; added: poly rA/U12 varied, UTP 25 µM): 4500 nM
CC(C)[C@H]1CC[C@@H](N2CC[C@@](C)(c3cccc(O)c3)[C@@H](C)C2)CC1 — Ki (Nociceptin receptor (OPRL1, Homo sapiens, UniProt P41146); ligand displacement, radioligand): > 10000 nM
CCCCc1ccc2c(c1)sc(=O)n2CCCN1CCCCCC1 — Ki (Tmem97; ligand displacement, radioligand): 15.3 nM
O=C1C(P(=O)(O)O)CCCN1O (stereo not drawn) — Ki (Alpha-enolase (ENO1, Homo sapiens, UniProt P06733); enzyme activity, inhibitor): 232 nM
CN1CCN(C(=O)N[C@@H](Cc2ccccc2)C(=O)N[C@H](/C=C/S(=O)(=O)c2ccccc2)CCc2ccccc2)CC1 — Ki (Cathepsin S (CTSS, Homo sapiens, UniProt P25774); enzyme activity, inhibitor, fluorescence; pH 5.5): 2 nM
CCn1nc(-c2cccs2)nc2c(=O)n(C)c(=O)nc1-2 — Ki (TPR; enzyme activity, inhibitor; added: NADPH varied, fixed trypanothione disulfide): 21500 nM
C[n+]1ccc(C(=O)NC2CCC3(O)C4Cc5ccc(O)c6c5C3(CC[N+]4(C)CC3CC3)C2O6)cc1 (stereo not drawn) — Ki (Oprm1 (Mus musculus, UniProt P42866); ligand displacement, radioligand; cell membranes): 28.3 nM
CCCCc1ccc2c(c1)sc(=O)n2CCCCCCN1CCCCCC1 — Ki (Tmem97; ligand displacement, radioligand): 4.1 nM
CC[C@H](C)[C@@H]1NC(=O)[C@H](Cc2ccc(O)cc2)NC(=O)[C@@H](N)Cc2cn(nn2)C[C@@H](C(=O)N2CCC[C@H]2C(=O)N[C@@H](CC(C)C)C(=O)NCC(N)=O)NC(=O)[C@H](CC(N)=O)NC(=O)[C@H](CCC(N)=O)NC1=O — Ki (OXTR; ligand displacement, radioligand; cell membranes): 31000 nM
N=C(N)NCCC[C@H](NC(=O)[C@@H]1CCCN1C(=O)[C@@H]1CSSC[C@H](N)C(=O)N[C@]2(CC[C@@H](c3ccccc3)CC2)C(=O)N[C@@H](Cc2ccccc2)C(=O)N[C@@H](CCC(N)=O)C(=O)N[C@@H](CC(N)=O)C(=O)N1)C(=O)NCC(N)=O — Ki (OXTR; [3H]oxytocin displacement; HEK293 expressing human oxytocin receptor; added: [3H]oxytocin 2 nM): 110 ± 26 nM
C[C@]1(COC(=O)c2ccc(O)c(O)c2)[C@H](C(=O)O)N2C(=O)/C(=C/c3ccccn3)[C@H]2S1(=O)=O — Ki (Beta-lactamase (ampC, Pseudomonas aeruginosa, UniProt P24735); enzyme activity, inhibitor, absorbance): 11 nM
Cc1cc2nc3n(c2cc1C)C(C)(C)NC(N)=N3 — Ki (Bifunctional dihydrofolate reductase-thymidylate synthase; enzyme activity, competitive inhibitor; added: dihydrofolate 60 µM, NADPH 100 µM): 2450 nM
CN1C(CCCc2ccccc2)CCC1CCCc1ccccc1 (stereo not drawn) — Ki (Slc18a2; transporter uptake, inhibitor, radiometric): 120 nM
CNC(=O)C1CCN(c2ccccc2NC(=O)c2ccc(-c3cc(O)ccc3C)c(C)n2)CC1 — Ki (EPHA4 (Homo sapiens, UniProt P54764); cell-free assay, TR-FRET): 0.4 nM
CCC(=O)c1ccc2c(c1)sc(=O)n2CCCN1CCCCCC1 — Ki (Tmem97; ligand displacement, radioligand): 305 nM
O=c1c(Cl)c(Cl)cnn1Cc1ccccc1Cl — Ki (Disulfide bond formation protein B (Escherichia coli, UniProt P0A6M2, C49V/C8A); enzyme activity, inhibitor): 0.8 nM
Cc1cc(O)cc(C)c1CC(N)C(=O)NC1CCNc2c1cc(Cc1ccccc1)cc2C(F)(F)F (stereo not drawn) — Ki (Oprm1 (Rattus norvegicus, UniProt P33535); ligand displacement, radioligand; cell membranes): 0.26 nM
CC(C)C[C@H](NC(=O)[C@H](CCCNC(=N)N)NC(=O)[C@@H](NC(=O)[C@H](CC(=O)O)NC(=O)[C@H](CCC(N)=O)NC(=O)[C@@H](NC(=O)[C@@H](NC(=O)[C@H](CCCNC(=N)N)NC(=O)[C@H](CO)NC(=O)[C@@H](N)CO)[C@@H](C)O)C(C)C)[C@@H](C)O)C(=O)O — Ki (Na(+)/H(+) exchange regulatory cofactor NHE-RF1, PDZ1 domain (NHERF1, Homo sapiens, UniProt O14745)): 2200 ± 1000 nM
CC(=O)N[C@@H](Cc1ccc(O)cc1)C(=O)N[C@@H](CCCNC(=N)NC(=O)NCCCCN)C(=O)N[C@@H](CC(C)C)C(=O)N[C@@H](CCCNC(=N)N)C(=O)N[C@@H](Cc1ccc(O)cc1)C(N)=O — Ki (NPY4R (Homo sapiens, UniProt P50391); ligand displacement, radioligand): 19.5 nM
O=C(CCCC[C@@H]1SC[C@@H]2NC(=O)N[C@@H]21)NCCCCCCCCN1[C@H]2[C@H](O)[C@@H](O)[C@H](O[C@@H]3OC[C@@H](O)[C@H](O)[C@H]3O)C[C@H]21 (stereo partly drawn) — Ki (endo-1,4-beta-xylanase (Aspergillus aculeatus, UniProt A0A1L9WG58); covalent inhibitor; pH 5.0, added: 4MU-β-D-xylobioside 1 mM): 40 nM
COc1c(O)cccc1C(=O)C1CCN(CCc2ccc(F)cc2)CC1 — Ki (HTR2B; ligand displacement, radioligand): 261 nM
c1ccc(CCCC2CCC(CCCc3ccccc3)N2)cc1 (stereo not drawn) — Ki (Slc18a2; transporter uptake, inhibitor, radiometric): 14 nM
CCCCc1ccc2c(c1)sc(=O)n2CCCCN1CCCCCC1 — Ki (Tmem97; ligand displacement, radioligand): 4.4 nM
CC[C@H](C)[C@@H]1NC(=O)[C@H](Cc2ccc(O)cc2)NC(=O)[C@@H](N)CCCCn2cc(nn2)C[C@@H](C(=O)N2CCC[C@H]2C(=O)N[C@@H](CC(C)C)C(=O)NCC(N)=O)NC(=O)[C@H](CC(N)=O)NC(=O)[C@H](CCC(N)=O)NC1=O — Ki (OXTR; ligand displacement, radioligand; cell membranes): 9800 nM
CCC(=O)c1ccc2c(c1)sc(=O)n2CCCCCCN1CCCCCC1 — Ki (Tmem97; ligand displacement, radioligand): 1.1 nM
CC(C)(COP(=O)(O)OP(=O)(O)OC[C@H]1O[C@@H](n2cnc3c(N)ncnc32)[C@H](O)[C@@H]1OP(=O)(O)O)[C@@H](O)C(=O)NCCC(=O)NCCSCC(=O)N[C@@H](CO)C(=O)NCC(=O)N[C@@H](CCCNC(=N)N)C(=O)NCC(N)=O — Ki (NAA40 (Homo sapiens, UniProt Q86UY6); inhibitor): 4.4 ± 0.85 nM
CC[C@H](C)[C@H](NC(=O)[C@H](CCC(=O)O)NC(=O)[C@H](Cc1ccc(F)cc1)NC(=O)[C@@H](C)NC(=O)[C@@H](N)Cc1ccc(O)cc1)C(=O)N[C@H](C(=O)NCC(N)=O)[C@@H](C)CC — Ki (Oprm1 (Mus musculus, UniProt P42866); ligand displacement, radioligand; cell membranes): > 1000 nM
CCCc1ccc2c(c1)sc(=O)n2CCCCN1CCCCCC1 — Ki (Tmem97; ligand displacement, radioligand): 4.3 nM
N=C(N)Nc1nc2ccc(Cl)cc2[nH]1 — Ki (Bifunctional dihydrofolate reductase-thymidylate synthase; enzyme activity, competitive inhibitor; added: dihydrofolate 60 µM, NADPH 100 µM): 580 nM
Cc1ccc(-c2nc3c(=O)n(C)c(=O)nc-3n(C)n2)cc1 — Ki (TPR; enzyme activity, inhibitor; added: NADPH varied, fixed trypanothione disulfide): 29400 nM
C/C(=N\OCCCN1CCCCC1)c1ccc(C(F)(F)F)cc1 — Ki (Tmem97; ligand displacement, radioligand): 200 nM
CCCC(=O)c1ccc2c(c1)sc(=O)n2CCCCCN1CCCCCC1 — Ki (Tmem97; ligand displacement, radioligand): 5.7 nM
COc1c(OCCOCCOCCOc2cccc(C(=O)C3CCN(CCc4ccc(F)cc4)CC3)c2OC)cccc1C(=O)C1CCN(CCc2ccc(F)cc2)CC1 — Ki (HTR2B; ligand displacement, radioligand): 476 nM

Repeated from above:
CNC(=O)C1CCN(c2ccccc2NC(=O)c2ccc(-c3cc(O)ccc3C)c(C)n2)CC1 — Ki (EPHA4 (Homo sapiens, UniProt P54764); cell-free assay, TR-FRET): 0.4 nM
CCC(=O)c1ccc2c(c1)sc(=O)n2CCCN1CCCCCC1 — Ki (Tmem97; ligand displacement, radioligand): 305 nM
O=c1c(Cl)c(Cl)cnn1Cc1ccccc1Cl — Ki (Disulfide bond formation protein B (Escherichia coli, UniProt P0A6M2, C49V/C8A); enzyme activity, inhibitor): 0.8 nM
Cc1cc(O)cc(C)c1CC(N)C(=O)NC1CCNc2c1cc(Cc1ccccc1)cc2C(F)(F)F (stereo not drawn) — Ki (Oprm1 (Rattus norvegicus, UniProt P33535); ligand displacement, radioligand; cell membranes): 0.26 nM
